Experimental data collected from several papers.
A part holds a random share of what one study measured. Substitutions count along the parent as printed.

Series 1 — technique: DHFR PCA, deep sequencing; matrix: yeast; added: (+)-ABA 0.11 µM; baseline: wild-type fitted maximum; direction: higher = stronger binding; endpoint: relative binding score
Target: ABI1, truncated, D143A, DHFR fusion (Arabidopsis thaliana)
Setting: methotrexate growth selection, single substitutions
Parent: PYL1, truncated, DHFR fusion (Arabidopsis thaliana); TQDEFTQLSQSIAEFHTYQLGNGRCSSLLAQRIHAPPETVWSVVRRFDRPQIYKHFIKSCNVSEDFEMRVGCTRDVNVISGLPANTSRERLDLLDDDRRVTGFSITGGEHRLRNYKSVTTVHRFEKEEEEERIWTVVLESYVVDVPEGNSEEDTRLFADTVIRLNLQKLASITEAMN; partner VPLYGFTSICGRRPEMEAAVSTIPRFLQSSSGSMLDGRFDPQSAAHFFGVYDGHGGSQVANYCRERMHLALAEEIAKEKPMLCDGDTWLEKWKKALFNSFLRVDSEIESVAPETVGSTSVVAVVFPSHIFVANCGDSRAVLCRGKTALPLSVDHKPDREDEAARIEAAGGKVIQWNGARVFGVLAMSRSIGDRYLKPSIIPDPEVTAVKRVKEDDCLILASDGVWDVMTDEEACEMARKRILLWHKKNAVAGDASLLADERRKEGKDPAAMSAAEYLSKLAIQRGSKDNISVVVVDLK
P146N: 6.98%
L28V: 52.9%
K54R: 16.4%
L20S: 40.6%
L8P: 0.121%
R111L: 5.89%
G107I: -6.65%

Series 2 — technique: RNA Bind-n-Seq; molecule type: RNA; matrix: in vitro; concentration: 365 nM; baseline: no-protein control; direction: higher = stronger binding; endpoint: RBNS enrichment (R)
Target: RNA binding protein fox-1 homolog 2, RRM domain, GST-SBP tag (RBFOX2, Homo sapiens, UniProt O43251-10, residues 100-194)
Setting: natural RNA segment, single round, ends assumed
All sequences stand within: GGGAGUUCUACAGUCCGACGAUC … UGGAAUUCUCGGGUGCCAA
Residues (chain): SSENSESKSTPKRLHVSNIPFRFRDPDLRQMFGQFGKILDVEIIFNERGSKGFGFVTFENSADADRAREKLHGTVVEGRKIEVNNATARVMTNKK
GGUGUCCUGACGGGAGCCAGGUCGGCCUGAGAGCUGUGCCGCUCCUCUGUCUUGUCAGUGGAGGUGCCUGGGUGGGGAGCAGGUCUCAGGCCUCUUGUCCUCUCCCCAGU: 0.48
UACCCUCCCCUUGUACUAAGAGCACAAGACACAGGACUCACAGAUUGCUUGUUCUCCCCUAUAAAGUAGUAGGCUCCACACUUGUUUUUGUGGUAAACAGGAGCAGUCAC: 0.298
AGGAGGGAAACUGUUGGACCGACUCCUGCCCCCUGCUCAACACUGACCCCUCUGAGUGGUUGGAGGCAGUGCCCCAGUGCCCAGAAAUCCCACCAUUAGUGAUUGUUUUU: 0.602
AUCAGAGAAGCAUAUUUCCCUUGUGUCUCUUAAUACUGUCAUCUUGAAACUCUCUCUAGGAAAAAUGCCCAAGUUGUCUUCUGUUUCUAUUGUGGGAUGUUUAAAAAUGG: 0.814
GGGUGGAGUUGGGGGCGCCUUUUGUUGAGGAGGUUGGAAUGUGGGCUCUAGGGCUGUGCACUUUCCACUUUCCGGAGGAAUAGAGUUUUUCUUUUUUUCAACUCUCCAUC: 0.569
AUGGCUUGUUCAUAGAAUGAUGCUACUGUGACUUCAAAACUGAUCUCAAGUAUUCUAGAAUCUGCUGGGACAUUGGGCUGUUUCUCAACUUAUGUGUCUACUUGGAGAGA: 0.408
UGCAGACUCAUCCUUUUUAAAUGAGACUUGUUUUCCCCUCUCUUUGAGUCAAGUCAAAUAUGUAGAUUGCCUUUGGCAAUUCUUCUUCUCAAGCACUGACACUCAUUACC: 0.6
AGAAGAAAGGUUUUCGGAGGCGCUGUGAUGUGGUGCGCUUACACGUGUACUUUUGGUCAUCCUGGGAUGCUUCUAACUUCACUGUGUGUAGGCGUUUGCCUUGGAAAUGU: 2.74
UCUAUGAAAGAGUUCACUUCAUAGAGAAUAAUACUUGAGCAAAUGUAUCCAAGAAAGCAAGCAAAUGAAAAGAAACCUAUUUAUGGAAUAAACUCCAGAUCUGAAAUUCA: 0.525
UUAAUCAGGAAUAUUGUGGUAAGCUGGGAGUAUCACUCUGGAAGAAAGUAACAUCUCCAGAUGAGAAUUUGAAACAAGAAACAGAGUGUUGUAAAAGGACACCUUCACUG: 0.483

Series 3 — target: CCNF, cyclin fold, Cln2 fusion (human); technique: yeast growth competition, sequencing; matrix: yeast; setting: strong parent motif; baseline: not given; direction: higher = stronger binding; endpoint: normalised enrichment score
Parent: WEE1 docking peptide (human); HKTFRKLRLFDTP
HKTGRKLRLFDTP [F4G]: 2.11
HKFFRKLRLFDTP [T3F]: 2.72
YKTFRKLRLFDTP [H1Y]: 1.89
CKTFRKLRLFDTP [H1C]: 2.86
HKTFRKLRLVDTP [F10V]: 1.19
HKTFRKQRLFDTP [L7Q]: 1.7
HKTFHKLRLFDTP [R5H]: 2.48

Other studies, line by line
PhoQ, residues 284 288 289 292 302 303 SQSLSM
fold induction (PhoP, residues 12 14 15 18 19 GHCSL (Escherichia coli, UniProt P23836); Sort-seq, refers to: YFP reporter; E. coli; PhoQ-PhoP variant library, added: 10 µM Mg2+; baseline: high Mg2+ state, higher = stronger signaling): 8.01

Some of these lines once more (series 1):
L20S: 40.6%
L8P: 0.121%
R111L: 5.89%
G107I: -6.65%
